# Published values from different studies.
# A part holds a random share of what one study measured. Changes are numbered by the printed parent chain.

# Study 1
# Target: Histone acetyltransferase KAT6A, both winged helices, GST fusion (KAT6A, Homo sapiens, UniProt Q92794, residues 1-181)
# Method: protein binding microarray
# Molecule type: double-stranded DNA, one strand shown
# Sample: in vitro
# Concentration: not given
# Setting: 8-mer, flanks averaged, mean of 2 arrays, mostly near background
# Baseline: not given
# Direction: higher = stronger binding
# Residues (chain): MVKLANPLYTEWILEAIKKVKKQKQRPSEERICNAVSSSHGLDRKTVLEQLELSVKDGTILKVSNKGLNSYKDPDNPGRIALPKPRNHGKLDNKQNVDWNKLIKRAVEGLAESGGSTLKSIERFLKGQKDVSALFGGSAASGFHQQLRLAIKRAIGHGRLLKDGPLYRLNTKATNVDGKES
Sequence,E-score
GGAGACTA,-0.0972
ATTATAAA,-0.0245
TAGTTTGA,0.0771
CCCCAATC,-0.237
AGATAGCT,-0.00127
AGGAGAAT,-0.152
CAATTGCG,0.186

# Study 2
# Target: RING finger protein unkempt homolog, zinc fingers 1-6, SBP tag (UNK, Homo sapiens, UniProt Q9C0B0, residues 30-357)
# Chain of UniProt Q9C0B0 (30-357, looked up): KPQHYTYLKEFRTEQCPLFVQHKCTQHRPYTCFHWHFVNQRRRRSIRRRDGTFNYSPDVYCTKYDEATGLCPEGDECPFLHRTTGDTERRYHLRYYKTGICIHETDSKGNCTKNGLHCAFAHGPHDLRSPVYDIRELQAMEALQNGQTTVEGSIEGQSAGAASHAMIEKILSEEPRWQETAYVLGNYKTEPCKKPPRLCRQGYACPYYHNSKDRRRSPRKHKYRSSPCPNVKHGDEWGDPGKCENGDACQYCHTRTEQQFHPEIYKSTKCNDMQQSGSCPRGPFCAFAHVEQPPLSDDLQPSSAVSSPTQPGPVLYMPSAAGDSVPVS
# Method: RNA Bind-n-Seq
# Molecule type: RNA
# Sample: in vitro
# Concentration: 100 nM
# Setting: RNA with constant flanks, vertebrate orthologous sites, ends assumed
# Baseline: input RNA pool
# Direction: higher = stronger binding
Sequence,bound/input enrichment [ratio]
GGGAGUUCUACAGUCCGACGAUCUUGAUUAUCCAUUAAAAUGUGUGUCAAAUGCUGAAUAUAGAAUUAAACCUUCACUUAGAAUAGAGUUAAUUUGUUAUAAUGAAGCUAUCUAUAGGUUUCCUUAAACCAGAGAUGCACUGCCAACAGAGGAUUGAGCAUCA,0.303
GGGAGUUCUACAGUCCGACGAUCUGGAUGCAGUGUAUAAAUUAUACAAGGCAGUGUCUUCAGCUUUAUAUAUAGAGAGAGAGAUUGUUAGUUUUAAAGUCAUCUACUUUUAUUUAAACUUCUAGAUUGGAUUGUUUGCUAUUGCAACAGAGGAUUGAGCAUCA,0.742
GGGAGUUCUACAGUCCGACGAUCAUUGAACAAAAAUGUUUCCACUGGCUUUUGCCUGUAAGAAAAACAAUGUACCCGAGCACAUAGAGCUUUUUAAUAGCACUAACCAAUGCCUUUUUAGAUGUAUUUUUGAUGUAUAUAUCUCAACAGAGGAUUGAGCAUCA,0.625
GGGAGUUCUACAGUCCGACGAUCUGUAAAAUAUUGGAUGCAGUGUAUAAAUUACCCAAGGCAGUGACUUCAGCGUUACAUAUAUUGUCAGUUUUAAAAUCAUCUGCAUUUAUUUAAACUCCUGUAUCGGAUUGUUUGAUCUGUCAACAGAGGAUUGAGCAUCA,0.408
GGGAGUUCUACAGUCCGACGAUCGUUGUGACCCAUUUAACAUACACAAAAAAUUAGCCAAAAAAAAUUUGCAUGUAAUUGACUUAGAUGAUGCCACUUUUCUGAGUGCUAAAUUUGGAAGACAGCUUGUACCUGGUUGGAAGCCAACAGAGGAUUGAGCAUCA,1.47
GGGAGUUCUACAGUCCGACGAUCAAUCAAUAGGAUUACAUAAUACUAAAGUUGCAGUUGAAAGAAUAUCCAAGUAUGUGUUCGUAGUUACUAAAAAAAUUAUAGCUGUUAUUGCCUUGUGUUUAUAGCCCUGUUUCAGGUUUCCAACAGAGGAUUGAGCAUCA,2.03
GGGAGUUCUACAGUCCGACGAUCUACAAUCUUACACUUAAACUGGUAUUUUCCAACAAUAGGAGAUUUUCUUUUUUUACAGUUUAGUGUAUCUGGUUUCUACAUGGAAGACUAAACUCGUGCUUAUUGCUAAAUGUGGUCUUUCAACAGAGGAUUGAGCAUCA,0.314

# Study 3
# Target: CCNB3, cyclin fold, Cln2 fusion (human)
# Method: yeast growth competition, sequencing
# Sample: yeast
# Setting: weak parent motif
# Baseline: not given
# Direction: higher = stronger binding
# Parent: HIRA docking peptide (human); SLSKRKLELEVET; partner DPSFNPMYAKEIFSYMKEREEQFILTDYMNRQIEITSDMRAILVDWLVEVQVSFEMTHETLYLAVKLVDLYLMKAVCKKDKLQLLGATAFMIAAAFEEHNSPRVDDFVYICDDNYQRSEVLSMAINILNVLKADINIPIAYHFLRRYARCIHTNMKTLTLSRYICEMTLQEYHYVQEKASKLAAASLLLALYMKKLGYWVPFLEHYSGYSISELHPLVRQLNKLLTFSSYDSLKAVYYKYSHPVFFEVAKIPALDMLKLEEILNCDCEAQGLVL
Change,normalised enrichment score
SLSARKLELEVET [K4A],-0.0954
SLAKRKLELEVET [S3A],-0.213
SLSKRKLELAVET [E10A],0.0716
SLSKRKLEFEVET [L9F],0.182
SLSKRKLELEVAT [E12A],-0.0995
SASKRKLELEVET [L2A],-0.106
SLSKRKLALEVET [E8A],0.467

# Single results of other studies
Molecule,target,test,system,conditions,how to read,quantity,result
"PhoQ, residues 284 288 289 292 302 303 GASLAW","PhoP, residues 12 14 15 18 19 SPWRL (Escherichia coli, UniProt P23836)","Sort-seq, measured: YFP reporter",E. coli,"PhoQ-PhoP variant library, added: 10 µM Mg2+","baseline: high Mg2+ state, higher = stronger signaling",fold induction,0.645

# Repeated from above (study 2):
Sequence,bound/input enrichment [ratio]
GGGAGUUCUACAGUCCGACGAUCAUUGAACAAAAAUGUUUCCACUGGCUUUUGCCUGUAAGAAAAACAAUGUACCCGAGCACAUAGAGCUUUUUAAUAGCACUAACCAAUGCCUUUUUAGAUGUAUUUUUGAUGUAUAUAUCUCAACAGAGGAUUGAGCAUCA,0.625
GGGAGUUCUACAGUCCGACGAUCUGUAAAAUAUUGGAUGCAGUGUAUAAAUUACCCAAGGCAGUGACUUCAGCGUUACAUAUAUUGUCAGUUUUAAAAUCAUCUGCAUUUAUUUAAACUCCUGUAUCGGAUUGUUUGAUCUGUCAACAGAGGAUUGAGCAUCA,0.408
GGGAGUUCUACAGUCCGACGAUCGUUGUGACCCAUUUAACAUACACAAAAAAUUAGCCAAAAAAAAUUUGCAUGUAAUUGACUUAGAUGAUGCCACUUUUCUGAGUGCUAAAUUUGGAAGACAGCUUGUACCUGGUUGGAAGCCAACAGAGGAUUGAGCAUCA,1.47
